Published values gathered from unrelated publications.
Compare with care: the assays were run in different laboratories. ± gives the spread as reported.

Structure (SMILES) = CCCCC[C@H](O)CC[C@@H]1[C@H]2Cc3cccc(OCC(=O)O)c3C[C@H]2C[C@H]1O; test system = healthy Japanese adults, plasma; conditions = inhaled, 18 µg single dose, scaled by body weight/60 kg; Cmax = 0.42 ± 0.06 ng/mL
Structure (SMILES) = COc1ccc2c(c1)CN(C(=O)CCN1CCC(Cc3ccccc3)CC1)CC[S@@+]2[O-]; test system = healthy male volunteers, plasma; conditions = intravenous, 0.6 mg/kg; Cmax = 2000 ng/mL
Structure (SMILES) = CC[C@H](Nc1ncnc2[nH]cnc12)c1oc2ccccc2c(=O)c1-c1cccc(F)c1; test system = patients, Cohort-3, plasma; conditions = oral, 800 mg twice daily, together with: romidepsin 14 mg/m2; Cmax = 5790 ± 2430 ng/mL
Structure (SMILES) = CNC(=O)c1cc(Oc2ccc(NC(=O)N(c3ccc(Cl)c(C(F)(F)F)c3)[C@@H]3O[C@H](C(=O)O)[C@@H](O)[C@H](O)[C@H]3O)cc2)ccn1; test system = patients, plasma; conditions = oral, 400 mg twice daily, steady state, without rifampin, geometric mean; Cmax = 2560 ng/mL
Structure (SMILES) = C[C@H]1[C@H]2N(C(=O)CN(C)N2C(=O)NCc2ccccc2)[C@@H](Cc2ccc(OP(=O)(O)O)cc2)C(=O)N1Cc1cccc2cccnc12; test system = patients, plasma; conditions = intravenous infusion, 140 mg/m2 over 4 h, median; Cmax = 883 ng/mL
Structure (SMILES) = O=C(O)c1cc(O)c(O)c(O)c1; test system = broiler chickens, serum; conditions = oral, in feed, 2000 mg/kg feed, 24 h, wheat diet, no tannins; Cmax = 350 ± 90 nM
Structure (SMILES) = N[C@@H](Cc1ccc(O)c(O)c1)C(=O)O; test system = Parkinson's disease patients, plasma; conditions = oral, low carbidopa AUC subgroup (11.5 µmol·h/L), median; Cmax = 6460 nM
Structure (SMILES) = Cc1ccc(C(=O)NC2CC2)cc1-n1ncc(C(=O)c2cccc(C#N)c2)c1N; test system = healthy volunteers; conditions = oral, 75 mg single dose, mean observed; Cmax = 729 ng/mL
Structure (SMILES) = C[C@@H](N)C1CCN(S(=O)(=O)c2cccc3cnccc23)CC1; test system = healthy volunteers, fasted, plasma; conditions = oral, 25 mg; Cmax = 3.66 ng/mL
Structure (SMILES) = C[C@H](NC(=O)/C(C#N)=C/c1cccc(Br)n1)c1ccccc1; assay = LC-MS/MS; test system = patients, plasma; conditions = oral, 4 mg/kg, cycle 1 day 1; Cmax = 23.3 ng/mL
Structure (SMILES) = C[C@@H]1CCO[C@H]2Cn3cc(C(=O)NCc4ccc(F)cc4F)c(=O)c(O)c3C(=O)N12; assay = population PK, post-hoc; test system = children, 14 to <20 kg, plasma; conditions = oral, 15 mg dispersible tablet, steady state, geometric mean; Cmax = 3390 ng/mL
Structure (SMILES) = C=CC(=O)NC1CCN(c2ncc3ncnc(Nc4ccc(Oc5ccc6c(c5)ncn6C)c(C)c4)c3n2)CC1; assay = item: total radioactivity; test system = healthy male volunteers, plasma; conditions = intravenous, 100 µg, 14C microtracer, geometric mean; Cmax = 0.498 nM
Structure (SMILES) = CCCCCCCCCCCCCCCC(=O)N[C@@H](CCC(=O)NCCCC[C@@H]1NC(=O)[C@H]([C@@H](C)CC)NC(=O)[C@@H](NC(=O)[C@@H]2CCCN2C(=O)[C@H](Cc2ccccc2)NC(=O)[C@H](Cc2c[nH]cn2)NC(=O)[C@@H](NC(=O)[C@H](CC(=O)O)NC(=O)CC(C)C)[C@@H](C)O)CSSC[C@@H](C(=O)N[C@@H](CCCCN)C(N)=O)NC(=O)CNC(=O)[C@H](CCCCN)NC(=O)[C@H](CO)NC(=O)[C@H](CCCNC(=N)N)NC(=O)[C@@H]2CCCN2C(=O)[C@H](CCC(=O)O)NC(=O)[C@H](Cc2ccccc2)NC1=O)C(=O)O; test system = healthy volunteers, plasma; conditions = subcutaneous, 10 mg single, lyophilised formulation; Cmax = 261 ± 64.4 ng/mL
Structure (SMILES) = C#C[C@]1(O)CC[C@H]2[C@@H]3CCC4=CC(=O)CC[C@@H]4[C@H]3CC[C@@]21C; assay = radioimmunoassay; test system = HIV-infected women on protease inhibitor therapy, serum; conditions = oral, 0.35 mg, steady state, geometric mean; Cmax = 2.76 ng/mL
Structure (SMILES) = CCNC(=O)[C@@H]1CCCN1C(=O)[C@H](CCCNC(=N)N)NC(=O)[C@H](CC(C)C)NC(=O)[C@@H](CC(C)C)NC(=O)[C@H](Cc1ccc(O)cc1)NC(=O)[C@H](CO)NC(=O)[C@H](Cc1c[nH]c2ccccc12)NC(=O)[C@H](Cc1c[nH]cn1)NC(=O)[C@@H]1CCC(=O)N1; test system = healthy premenopausal women, plasma; conditions = oral, 4 mg twice daily, day 29; Cmax = 4.8 ± 6.2 ng/mL
Structure (SMILES) = CC(C)(C)c1cc(C(C)(C)C)c(NC(=O)c2c[nH]c3ccccc3c2=O)cc1O; test system = human, plasma; conditions = oral, standard ETI dose; Cmax = 1300 ng/mL
Structure (SMILES) = OC[C@H]1O[C@@H](c2ccc(F)c(Cc3cc4ccccc4s3)c2)[C@H](O)[C@@H](O)[C@@H]1O; test system = Japanese type 2 diabetes patients, plasma; conditions = oral, 50 mg/day, day 1; Cmax = 1230 ± 289 ng/mL
Structure (SMILES) = CC(C)c1nc(N(C)S(C)(=O)=O)nc(-c2ccc(F)cc2)c1/C=C/[C@@H](O)C[C@@H](O)CC(=O)O; test system = healthy volunteers, plasma; conditions = oral, 10 mg, day 8, BCRP probe, together with: momelotinib, days 4-8, 200 mg, once daily; Cmax = 10.5 ng/mL
Structure (SMILES) = COc1cc(N2CCC(N3CCN(C)CC3)CC2)ccc1Nc1ncc(Cl)c(Nc2ccccc2P(C)(C)=O)n1; test system = healthy subjects, plasma; conditions = oral, 90 mg, single dose, geometric mean; Cmax = 353 ng/mL
Structure (SMILES) = N[C@@H](CC(=O)N1CCc2c(nc(C(F)(F)F)nc2C(F)(F)F)C1)CN1CC(F)(F)CCC1=O; test system = healthy Korean adults, fasted, plasma; conditions = oral, 50 mg single dose, fixed-dose combination tablet, together with: enavogliflozin 0.3 mg; Cmax = 104 ± 34 ng/mL
Structure (SMILES) = C=C(F)C(=O)N1CCN(c2nc(OC[C@@H]3CCCN3C)nc3c2CCN(c2cccc4cccc(Cl)c24)C3)C[C@@H]1CC#N; test system = cancer patients, plasma; conditions = 600 mg; Cmax = 558 ng/mL
Structure (SMILES) = CC[C@H](C)CCCCC(=O)N[C@@H](CCN)C(=O)N[C@H](C(=O)N[C@@H](CCN)C(=O)N[C@H]1CCNC(=O)[C@H]([C@@H](C)O)NC(=O)[C@H](CCN)NC(=O)[C@H](CCN)NC(=O)[C@H](CC(C)C)NC(=O)[C@@H](Cc2ccccc2)NC(=O)[C@H](CCN)NC1=O)[C@@H](C)O; assay = LC-MS/MS; test system = mild renal impairment, plasma; conditions = intravenous infusion, 0.75 mg/kg single dose over 1 h, arithmetic mean; Cmax = 3600 ng/mL
Structure (SMILES) = CCCCCCCOc1ccc(CCC(N)(CO)CO)cc1C(F)(F)F.Cl; test system = healthy men, plasma; conditions = oral, 0.125 mg, day 1; Cmax = 0.0441 ng/mL
Structure (SMILES) = Cc1c(C(=O)O)ccc2c3n(nc12)[C@@H]1[C@H](C3)N(CC2CC2)[C@@]2(C(=O)Nc3cc(Cl)ccc32)[C@H]1c1cccc(Cl)c1F; test system = cancer patients, plasma; conditions = oral, 45 mg day 1 every 3 weeks, geometric mean, cycle 1; Cmax = 2880 nM
Structure (SMILES) = COc1nnc2ccc(N3CCC(c4ccc(OCCN5CCN(C)C(=O)[C@H]5C)cc4)CC3)nn12; test system = patients, plasma; conditions = oral, 20 mg twice daily, single dose, monotherapy; Cmax = 172 nM
Structure (SMILES) = CCc1nc2c(C)cc(N3CCN(CC(=O)N4CC(O)C4)CC3)cn2c1N(C)c1nc(-c2ccc(F)cc2)c(C#N)s1; test system = healthy volunteers, plasma; conditions = oral, 1000 mg once daily multiple doses; Cmax = 20700 ng/mL
Structure (SMILES) = N[C@@H]1c2ccccc2OC12CCN(c1cnc3c(N4CCCc5ncccc54)n[nH]c3n1)CC2; test system = advanced metastatic solid tumour patients, plasma; conditions = oral, 100 mg once daily, cycle 1 day 15, geometric mean; Cmax = 1070 ng/mL
Structure (SMILES) = CS(=O)(=O)c1ccc([C@@H](O)[C@@H](CF)NC(=O)C(Cl)Cl)cc1; test system = chicken (Arbor Acres), plasma; conditions = oral, 20 mg/kg, together with: saline pretreatment; Cmax = 7240 ± 1200 ng/mL
Structure (SMILES) = CC(C)n1c(/C=C/C(O)CC(O)CC(=O)O)c(-c2ccc(F)cc2)c2ccccc21 (centres unmarked); test system = healthy volunteers; conditions = oral, 20 mg, alone, control phase; Cmax = 176 ± 149 ng/mL
Structure (SMILES) = CCc1nc(C(N)=O)c(Nc2ccc(N3CCC(N4CCN(C)CC4)CC3)c(OC)c2)nc1NC1CCOCC1; test system = patients, plasma; conditions = oral, 80 mg once daily, cycle 1 day 15, median; Cmax = 396 ng/mL
Structure (SMILES) = O=C(c1cccnc1-c1ccncc1)N1CCC(O)(Cc2ccccc2)CC1; test system = healthy Japanese adults, plasma; conditions = oral, 600 mg single dose, geometric mean, PK/QTc set; Cmax = 3000 ng/mL
Structure (SMILES) = CCNC(=O)[C@@H]1CCCN1C(=O)[C@H](CCCNC(=N)N)NC(=O)[C@H](CC(C)C)NC(=O)[C@@H](CC(C)C)NC(=O)[C@H](Cc1ccc(O)cc1)NC(=O)[C@H](CO)NC(=O)[C@H](Cc1c[nH]c2ccccc12)NC(=O)[C@H](Cc1c[nH]cn1)NC(=O)[C@@H]1CCC(=O)N1; test system = healthy female volunteers; conditions = subcutaneous, 1 mg single dose; Cmax = 59.4 ± 9.1 ng/mL
Structure (SMILES) = C[C@@](Cc1ccc(O)c(O)c1)(NN)C(=O)O; test system = female Parkinson's disease patients, plasma; conditions = oral, dose not given, median; Cmax = 75 ng/mL
Structure (SMILES) = COc1c(O)cc(C(=O)O)cc1O; test system = broiler chickens, serum; conditions = oral, in feed, 2000 mg/kg feed, 24 h, corn diet with tannins; Cmax = 100 ± 20 nM
Structure (SMILES) = Oc1ccc([C@@H](O)c2cc(-c3ncnc4cc(N5CCOCC5)ccc34)c(F)cc2Cl)nn1; assay = geometric mean; test system = healthy volunteers, plasma; conditions = oral, 100 mg, high-fat fed tablet; Cmax = 92.8 ng/mL

For quick reference, copied from above:
Structure (SMILES) = C[C@@H]1CCO[C@H]2Cn3cc(C(=O)NCc4ccc(F)cc4F)c(=O)c(O)c3C(=O)N12; assay = population PK, post-hoc; test system = children, 14 to <20 kg, plasma; conditions = oral, 15 mg dispersible tablet, steady state, geometric mean; Cmax = 3390 ng/mL
Structure (SMILES) = C=CC(=O)NC1CCN(c2ncc3ncnc(Nc4ccc(Oc5ccc6c(c5)ncn6C)c(C)c4)c3n2)CC1; assay = item: total radioactivity; test system = healthy male volunteers, plasma; conditions = intravenous, 100 µg, 14C microtracer, geometric mean; Cmax = 0.498 nM
Structure (SMILES) = CCCCCCCCCCCCCCCC(=O)N[C@@H](CCC(=O)NCCCC[C@@H]1NC(=O)[C@H]([C@@H](C)CC)NC(=O)[C@@H](NC(=O)[C@@H]2CCCN2C(=O)[C@H](Cc2ccccc2)NC(=O)[C@H](Cc2c[nH]cn2)NC(=O)[C@@H](NC(=O)[C@H](CC(=O)O)NC(=O)CC(C)C)[C@@H](C)O)CSSC[C@@H](C(=O)N[C@@H](CCCCN)C(N)=O)NC(=O)CNC(=O)[C@H](CCCCN)NC(=O)[C@H](CO)NC(=O)[C@H](CCCNC(=N)N)NC(=O)[C@@H]2CCCN2C(=O)[C@H](CCC(=O)O)NC(=O)[C@H](Cc2ccccc2)NC1=O)C(=O)O; test system = healthy volunteers, plasma; conditions = subcutaneous, 10 mg single, lyophilised formulation; Cmax = 261 ± 64.4 ng/mL
Structure (SMILES) = C#C[C@]1(O)CC[C@H]2[C@@H]3CCC4=CC(=O)CC[C@@H]4[C@H]3CC[C@@]21C; assay = radioimmunoassay; test system = HIV-infected women on protease inhibitor therapy, serum; conditions = oral, 0.35 mg, steady state, geometric mean; Cmax = 2.76 ng/mL
Structure (SMILES) = CCNC(=O)[C@@H]1CCCN1C(=O)[C@H](CCCNC(=N)N)NC(=O)[C@H](CC(C)C)NC(=O)[C@@H](CC(C)C)NC(=O)[C@H](Cc1ccc(O)cc1)NC(=O)[C@H](CO)NC(=O)[C@H](Cc1c[nH]c2ccccc12)NC(=O)[C@H](Cc1c[nH]cn1)NC(=O)[C@@H]1CCC(=O)N1; test system = healthy premenopausal women, plasma; conditions = oral, 4 mg twice daily, day 29; Cmax = 4.8 ± 6.2 ng/mL
